Measurements from different studies.
Each line is one published result; not all experiments were run side by side. “And” joins repeats or separate records; there may be more than shown.

SMILES | tested on | test | test system | conditions | how to read | endpoint | result
Fc1ccc(Nc2nc(NC3CCCCC3)c3cc(C(F)(F)F)ccc3n2)cc1F | β2AR/β1AR ECL1/3 chimera | β-arrestin2 recruitment, antagonist, BRET |  | together with: isoprenaline 1 µM |  | pIC50 | 6.7
CCCn1ncc(CN2CCCC(C(=O)c3cccc(OC(C)C)c3)C2)c1C (stereo not drawn) | Trypanosoma cruzi | reporter mRNA translation, inhibitor, refers to: Renilla luciferase mRNA | cell-free extract | concentration not given, test 2 | reference: positive over negative control | translation activity | 92.7%
c1ccc(-c2n[nH]cc2-c2ccnc3ccccc23)nc1 | CDC5 (Candida albicans) | kinase binding, MIB/MS competition | Candida albicans lysate | 10 µM | reference: DMSO | log2 fold change | 0.19
CNS(=O)(=O)Nc1nccc(Cc2c(C)c3ccc(Oc4ncccc4F)cc3oc2=O)c1F | MM1.S | cell viability |  | 7 days |  | IC50 | > 1000 nM
CCN(CC)CC(=O)Nc1cccc(-n2cc(-c3ccc4ccc(-c5cn(-c6cccc(NC(=O)CN(CC)CC)c6)nn5)cc4c3)nn2)c1 | RCC4 | PCR angiogenesis array, refers to: FIGF |  | 5 x IC50, 4 h, normoxia | reference: untreated | fold regulation | -1.47
C=C(NC(=O)c1csc(-c2nc3c(cc2O)-c2nc(cs2)C(=O)NC(C(C)O)C(=O)NC(=C(C)OC)c2nc(cs2)C(=O)NC2c4nc(cs4)C(=O)NC(COC(=O)c4c5c6c(cccc6n4O)COC(=O)C(OC4CC(C)(O)C(N(C)C)C(C)O4)C2OC5)c2nc-3cs2)n1)C(N)=O (stereo not drawn) | Staphylococcus |  | MRSE-8, mouse systemic infection | intravenous | survival | ED50 | 1.24 mg/kg
CCn1nc(C)c(CN2CCCC(C(=O)c3cccc(OC(C)C)c3)C2)c1C (stereo not drawn) | Trypanosoma cruzi | reporter mRNA translation, inhibitor, refers to: Renilla luciferase mRNA | cell-free extract | concentration not given, test 2 | reference: positive over negative control | translation activity | 119% and 105%
Cc1ncsc1-c1ccc(C(C)NC(=O)C2CC(O)CN2C(=O)C(NC(=O)CCCCCCCCCCN2CCCC(Nc3ncc(Cl)c(Nc4ccccc4S(=O)(=O)C(C)C)n3)C2)C(C)(C)C)cc1 (stereo not drawn) | 22Rv1 | RNA-seq, refers to: TRAF3IP2 mRNA |  | concentration not given | reference: DMSO | log2 fold change | -1.4
O=c1[nH]cc(C(c2ccc(Cl)cc2)c2c[nH]c(=O)[nH]c2=O)c(=O)[nH]1 | HIV-1 subtype C | p24 antigen production, p24 ELISA |  | 62.5 µg/mL |  | inhibition | 32%
COC1CN([C@H]2CC[C@H]([C@@]3(C)Oc4c(Cl)cc(C(=O)NCc5c(SC)cc(C)[nH]c5=O)c(C)c4O3)CC2)C1 |  | RNA-seq, refers to: DUSP8 mouse homolog | mouse, HT-1376 xenograft, whole blood | dose not given | reference: vehicle | log2 fold change | 1.88
CC1=C[C@H](O/C=C2/C(=O)O[C@@H]3c4ccccc4C[C@H]23)OC1=O | Arabidopsis thaliana |  | htl-3 mutant |  |  | maximum germination | 9%
Nc1ncc(-c2cc(-c3cnn(CC(F)(F)F)c3)ncc2F)nc1C(=O)NC1CNCC(F)C1 (stereo not drawn) | PAK4 | KINOMEscan |  | 1 µM | reference: DMSO control | remaining binding | 75%
Cn1ncc2cc(-c3cncc(Cl)c3N3CCC4(CCNC4=O)CC3)ccc21 | LS174T | gene expression, microarray, refers to: KRT14 mRNA |  | concentration not given, 24 h | reference: untreated cells | log2 fold change | -1.38
CCOc1cncc(-c2ccc(NC(=O)C3(c4ccnc(NS(=O)(=O)C5CC5)n4)CCOCC3)nc2)n1 | lung cancer | cell viability, CellTiter-Glo | DMSO 0.1% | 72 h, line code 2184 |  | IC50 | 8 nM
O=c1[nH]cc(C(c2ccccc2Br)c2c[nH]c(=O)[nH]c2=O)c(=O)[nH]1 | HIV-1 subtype C | p24 antigen production, p24 ELISA |  | 1000 µg/mL |  | inhibition | 88%
CC(C)c1ccc(N(C)c2ccc3c(c2)OCC[C@H]3CNc2cnccc2C(=O)O)cc1 | SNU878 | cell viability, CellTiter-Glo |  | 7 days |  | IC50 | ≥ 10000 nM
C=CC(=O)Nc1cccc(Cn2ncc3cnc(Nc4cnn(CCOC)c4)nc32)c1 | human ABL1(H396P)-phosphorylated | KINOMEscan |  | 100 nM | reference: control | binding | 8.2%
CN1CCCNC(=O)c2cccc(c2)C(=O)NCCCN(C)CCCNc2cccc3c2C(=O)c2cccc(c2C3=O)NCCC1 | SAS | RNA-Seq, refers to: GOLGA4 mRNA |  | 1 µM, 6 h | reference: untreated cells | log2 fold change | -0.55
